Measured values from different studies.
Every numbered part comes from another study and shows a few of its results, in no order. Positions count from the first letter of the parent shown.

Series 1 — method: RNA Bind-n-Seq; molecule type: RNA; matrix: in vitro; concentration: 365 nM; reference: no-protein control; reading: higher = stronger binding
Target: RNA binding protein fox-1 homolog 2, RRM domain, GST-SBP tag (RBFOX2, Homo sapiens, UniProt O43251-10, residues 100-194)
Notes: natural RNA segment, single round, ends assumed
Constant ends, left off below: GGGAGUUCUACAGUCCGACGAUC … UGGAAUUCUCGGGUGCCAA
Residues (chain): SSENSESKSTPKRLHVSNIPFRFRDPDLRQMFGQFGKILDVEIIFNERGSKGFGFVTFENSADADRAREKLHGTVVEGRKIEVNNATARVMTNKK
`CCAGAGAAGCGCUGUUGCCCGCCCUCCACCCACUAGGUGAACAGCAGGAUGCCCUGUUGGGGGCUUCAGGUCUCUGUGGGUGGGAAUGCAAGUGAACUUGGGAGGGGGCA`: “RBNS enrichment (R)” 0.752.
`AUUGAACAUGUGAUAAUCUAAUACCUGUGAAAACUGACUAAUCAGCUGCCAAUAAUAUCUAAUAUUUUUCAUCAUGCACGAAUUAAUAAUCAUCAUACUCUAGAAUCUUG`: “RBNS enrichment (R)” 0.832.
`GCUCCUGCACUUACUUGCUUAUUUGACAACGUUUCAGCGACUCCGUUGGCCACUCCGAGAGGUGGGCCAGUCUGUGGAUCAGAGAUGCACCACCAAGCCAAGGGAACCUG`: “RBNS enrichment (R)” 0.674.
`CGUAAGCAUAUACAAUCCACUUCCCACUAAGAAUUAGGGUCAAAGACAUUCUAUUUGAACACUUGCAAUUACCUAGAUCUAGUUGGCCUUUGGUUGAUAGAUCCUCUGCC` — result for “RBNS enrichment (R)”: 0.653.
For `UCAUGUUAUCCAAGCAGUGGGUUAACUAAAGGGCCCAUUCAUCCUUUAUGCCCGGUACACACAACAUAUGUUCAGUUGUUCUUAACUACUUUUGUCAUUUGUUUUUUGGA`, “RBNS enrichment (R)” read 0.267.

Series 2 — target: CCNB1, cyclin fold, Cln2 fusion (human); method: yeast growth competition, sequencing; matrix: yeast; notes: weak parent motif; reference: not given; reading: higher = stronger binding
Starting sequence: GMNC docking peptide (human); KNAKRNLSSEFAN
`KNAKRNLRSEFAN [S8R]`: “normalised enrichment score” 0.322.
`KNAIRNLSSEFAN [K4I]`: “normalised enrichment score” 0.489.
Under “normalised enrichment score”, `KNDKRNLSSEFAN [A3D]` is recorded as 0.109.
`KNAKRMLSSEFAN [N6M]` — result for “normalised enrichment score”: 0.0666.

Series 3 — method: DHFR PCA, deep sequencing; matrix: yeast; with: (+)-ABA 0 µM; reference: wild-type fitted maximum; reading: higher = stronger binding
Target: ABI1, truncated, D143A, DHFR fusion (Arabidopsis thaliana)
Notes: methotrexate growth selection, single substitutions
Starting sequence: PYL1, truncated, DHFR fusion (Arabidopsis thaliana); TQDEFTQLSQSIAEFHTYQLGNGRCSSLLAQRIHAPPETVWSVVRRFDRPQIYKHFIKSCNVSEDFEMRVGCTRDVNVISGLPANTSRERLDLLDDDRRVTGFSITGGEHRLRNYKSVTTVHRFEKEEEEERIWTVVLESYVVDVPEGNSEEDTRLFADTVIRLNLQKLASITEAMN
Under “relative binding score”, `Y141N` is recorded as 2.06%.
For `E151G`, “relative binding score” read 5.3%.
Under “relative binding score”, `F103Y` is recorded as 60%.

Single results of other studies
`PhoQ, residues 284 288 289 292 302 303 SLANKL` has a fold induction of 1.59 (PhoP, residues 12 14 15 18 19 DLLYY (Escherichia coli, UniProt P23836); Sort-seq, measured: YFP reporter; E. coli; PhoQ-PhoP variant library, with: 10 µM Mg2+; reference: high Mg2+ state, higher = stronger signaling).

Repeated from above (series 1):
`AUUGAACAUGUGAUAAUCUAAUACCUGUGAAAACUGACUAAUCAGCUGCCAAUAAUAUCUAAUAUUUUUCAUCAUGCACGAAUUAAUAAUCAUCAUACUCUAGAAUCUUG`: “RBNS enrichment (R)” 0.832.
